Results pooled from the literature.
Protocols differ between the studies behind these lines.
Cell line: HEK293

CCCCCCCCCCCC1CC(=O)N[C@@H](CO)C(=O)N[C@H](CO)C(=O)N[C@H](C)C(=O)N(C)[C@@H](C(C)C)C(=O)N[C@H](CO)C(=O)N[C@H](CCCCN)C(=O)N[C@H](CO)C(=O)N[C@@H](CCCCN)C(=O)O1 (some centres unmarked) — survival (MTT; 3.2 mg): 101%
CC(C)C[C@H](NC(=O)[C@H](CC(N)=O)NC(=O)[C@H](CCCNC(=N)N)NC(=O)[C@@H](CC(C)C)NC(=O)[C@H](Cc1ccc(-c2ccccc2)cc1)NC(=O)[C@H](CC(=O)O)NC(=O)[C@H](CCCCN)NC(=O)[C@@H](CC(C)C)NC(=O)[C@H](CCCNC(=N)N)NC(=O)[C@H](CCC(N)=O)NC(=O)[C@@H](NC(=O)[C@@H](CC(C)C)NC(=O)[C@H](CCCNC(=N)N)NC(=O)[C@H](CCCCN)NC(=O)[C@H](Cc1ccc(-c2ccccc2)cc1)NC(=O)CN)C(C)C)C(=O)N[C@H](C(N)=O)C(C)C — LC50 (cell viability, MTS; serum-free): 18 µM
CC[C@H](C)[C@H](NC(=O)[C@H](CCCN)NC(=O)[C@H](CCCNC(=N)N)NC(=O)[C@@H]1CCCN1C(=O)[C@@H]1CCCN1C(=O)[C@H](CCCNC(=N)N)NC(=O)[C@@H]1CCCN1C(=O)[C@H](CCCNC(=N)N)NC(=O)[C@@H]1CCCN1C(=O)[C@H](CC(C)C)NC(=O)[C@H](Cc1ccc(O)cc1)NC(=O)[C@@H]1CCCN1C(=O)[C@@H]1CCCN1C(=O)[C@H](CCCCN)NC(=O)[C@H](CC(=O)O)NC(=O)[C@@H](N)C(C)C)C(=O)N[C@@H](Cc1ccc(O)cc1)C(=O)N[C@@H](CC(N)=O)C(=O)N[C@@H](CCCN)C(N)=O — viability (MTT; concentration not given, DMEM/F12 with FBS): not toxic
C[C@@H]1CC[C@@]2(OC1)O[C@H]1[C@@H](O)[C@H]3[C@@H]4CC[C@H]5C[C@@H](O[C@@H]6O[C@H](CO)[C@H](O[C@@H]7O[C@H](CO)[C@@H](O)[C@H](O[C@@H]8OC[C@@H](O)[C@H](O)[C@H]8O)[C@H]7O[C@@H]7O[C@H](CO)[C@H](O)[C@H](O[C@@H]8O[C@H](CO)[C@@H](O)[C@H](O)[C@H]8O)[C@H]7O)[C@H](O)[C@H]6O)[C@H](O)C[C@]5(C)[C@H]4CC[C@]3(C)[C@H]1[C@@H]2C — LD50 (resazurin reduction; 24 h, range 0.03 to 30 µM): 9.68 µM
O=S(=O)(C1CC1)N1CCCC2(C1)Nc1ccccc1N=C2NC1CCCC1 (centres unmarked) — CC50 (72 (unit not given)): 94.5 µM
CCCCCCCCCCCC1CC(=O)N[C@@H]([C@@H](C)O)C(=O)N[C@@H](Cc2ccccc2)C(=O)N[C@@H]([C@@H](C)O)C(=O)N[C@H]([C@H](C)O)C(=O)N[C@@H]([C@@H](C)O)C(=O)N[C@@H](Cc2ccccc2)C(=O)O1 (some centres unmarked) — survival (MTT; 3.2 mg): 42.9%
CC(C)C[C@H](NC(=O)[C@H](CC(N)=O)NC(=O)[C@H](CCCNC(=N)N)NC(=O)[C@@H](CC(C)C)NC(=O)[C@H](Cc1ccc(-c2ccccc2)cc1)NC(=O)[C@H](CC(=O)O)NC(=O)[C@H](CCCNC(=N)N)NC(=O)[C@@H](CC(C)C)NC(=O)[C@H](CCCCN)NC(=O)[C@H](CCC(N)=O)NC(=O)[C@@H](NC(=O)[C@@H](CC(C)C)NC(=O)[C@H](CCCNC(=N)N)NC(=O)[C@H](CCCCN)NC(=O)[C@H](Cc1ccc(-c2ccccc2)cc1)NC(=O)CN)C(C)C)C(=O)N[C@H](C(N)=O)C(C)C — LC50 (cell viability, MTS; serum-free): 16 µM
CC(C)C[C@H](NC(=O)[C@H](CC(C)C)NC(=O)[C@H](CCCCN)NC(=O)CNC(=O)[C@H](CC(C)C)NC(=O)CNC(=O)[C@H](CO)NC(=O)[C@H](CC(C)C)NC(=O)[C@H](CC(C)C)NC(=O)[C@H](CO)NC(=O)[C@H](CCCCN)NC(=O)[C@H](CC(C)C)NC(=O)[C@H](CCCCN)NC(=O)[C@H](CCCCN)NC(=O)[C@H](C)NC(=O)[C@H](C)NC(=O)[C@H](C)NC(=O)CNC(=O)[C@H](CO)NC(=O)[C@H](Cc1c[nH]c2ccccc12)NC(=O)[C@@H](N)CCCCN)C(=O)O — TC50 (MTS; 24 h, 37 °C): > 100 µM

Some of these lines once more:
CC(C)C[C@H](NC(=O)[C@H](CC(N)=O)NC(=O)[C@H](CCCNC(=N)N)NC(=O)[C@@H](CC(C)C)NC(=O)[C@H](Cc1ccc(-c2ccccc2)cc1)NC(=O)[C@H](CC(=O)O)NC(=O)[C@H](CCCNC(=N)N)NC(=O)[C@@H](CC(C)C)NC(=O)[C@H](CCCCN)NC(=O)[C@H](CCC(N)=O)NC(=O)[C@@H](NC(=O)[C@@H](CC(C)C)NC(=O)[C@H](CCCNC(=N)N)NC(=O)[C@H](CCCCN)NC(=O)[C@H](Cc1ccc(-c2ccccc2)cc1)NC(=O)CN)C(C)C)C(=O)N[C@H](C(N)=O)C(C)C — LC50 (cell viability, MTS; serum-free): 16 µM
